Experimental data pooled from the literature.
Lines come from different studies, so protocols differ. Values joined by “and” are separate records of one study, mostly repeats; a detail may differ.
Chymotrypsinogen A: Chymotrypsinogen A (Bos taurus, UniProt P00766)
GBA2: Beta-glucosidase (GBA2, Homo sapiens, UniProt Q9HCG7)
UniProt Q9HCG7, sequence (whole entry, looked up): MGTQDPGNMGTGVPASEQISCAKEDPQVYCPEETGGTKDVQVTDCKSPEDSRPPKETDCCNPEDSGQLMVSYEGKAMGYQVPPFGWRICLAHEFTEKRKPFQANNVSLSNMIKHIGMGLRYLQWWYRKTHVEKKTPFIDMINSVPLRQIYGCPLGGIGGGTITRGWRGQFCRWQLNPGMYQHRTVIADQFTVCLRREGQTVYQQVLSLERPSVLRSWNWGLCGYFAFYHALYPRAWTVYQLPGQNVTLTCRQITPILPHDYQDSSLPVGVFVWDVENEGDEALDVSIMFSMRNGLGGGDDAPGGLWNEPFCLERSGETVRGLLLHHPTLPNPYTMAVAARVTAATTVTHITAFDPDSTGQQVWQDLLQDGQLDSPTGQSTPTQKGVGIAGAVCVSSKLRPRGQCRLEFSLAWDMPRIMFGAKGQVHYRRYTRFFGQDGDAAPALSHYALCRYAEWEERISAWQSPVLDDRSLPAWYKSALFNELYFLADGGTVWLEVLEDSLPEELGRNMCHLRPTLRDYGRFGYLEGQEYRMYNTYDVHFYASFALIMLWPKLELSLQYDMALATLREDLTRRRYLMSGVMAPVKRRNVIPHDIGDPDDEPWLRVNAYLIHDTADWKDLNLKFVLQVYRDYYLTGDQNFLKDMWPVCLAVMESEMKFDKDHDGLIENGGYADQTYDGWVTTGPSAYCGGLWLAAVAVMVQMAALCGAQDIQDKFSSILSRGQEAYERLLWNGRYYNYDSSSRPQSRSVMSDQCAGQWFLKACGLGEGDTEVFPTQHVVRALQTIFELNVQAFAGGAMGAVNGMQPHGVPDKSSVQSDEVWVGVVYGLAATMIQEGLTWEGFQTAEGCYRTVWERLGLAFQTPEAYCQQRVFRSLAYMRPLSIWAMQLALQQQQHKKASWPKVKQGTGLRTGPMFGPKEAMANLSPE
PIK3CG: Phosphatidylinositol 4,5-bisphosphate 3-kinase catalytic subunit gamma isoform (PIK3CG, Homo sapiens, UniProt P48736)
UniProt P48736, sequence (whole entry, looked up): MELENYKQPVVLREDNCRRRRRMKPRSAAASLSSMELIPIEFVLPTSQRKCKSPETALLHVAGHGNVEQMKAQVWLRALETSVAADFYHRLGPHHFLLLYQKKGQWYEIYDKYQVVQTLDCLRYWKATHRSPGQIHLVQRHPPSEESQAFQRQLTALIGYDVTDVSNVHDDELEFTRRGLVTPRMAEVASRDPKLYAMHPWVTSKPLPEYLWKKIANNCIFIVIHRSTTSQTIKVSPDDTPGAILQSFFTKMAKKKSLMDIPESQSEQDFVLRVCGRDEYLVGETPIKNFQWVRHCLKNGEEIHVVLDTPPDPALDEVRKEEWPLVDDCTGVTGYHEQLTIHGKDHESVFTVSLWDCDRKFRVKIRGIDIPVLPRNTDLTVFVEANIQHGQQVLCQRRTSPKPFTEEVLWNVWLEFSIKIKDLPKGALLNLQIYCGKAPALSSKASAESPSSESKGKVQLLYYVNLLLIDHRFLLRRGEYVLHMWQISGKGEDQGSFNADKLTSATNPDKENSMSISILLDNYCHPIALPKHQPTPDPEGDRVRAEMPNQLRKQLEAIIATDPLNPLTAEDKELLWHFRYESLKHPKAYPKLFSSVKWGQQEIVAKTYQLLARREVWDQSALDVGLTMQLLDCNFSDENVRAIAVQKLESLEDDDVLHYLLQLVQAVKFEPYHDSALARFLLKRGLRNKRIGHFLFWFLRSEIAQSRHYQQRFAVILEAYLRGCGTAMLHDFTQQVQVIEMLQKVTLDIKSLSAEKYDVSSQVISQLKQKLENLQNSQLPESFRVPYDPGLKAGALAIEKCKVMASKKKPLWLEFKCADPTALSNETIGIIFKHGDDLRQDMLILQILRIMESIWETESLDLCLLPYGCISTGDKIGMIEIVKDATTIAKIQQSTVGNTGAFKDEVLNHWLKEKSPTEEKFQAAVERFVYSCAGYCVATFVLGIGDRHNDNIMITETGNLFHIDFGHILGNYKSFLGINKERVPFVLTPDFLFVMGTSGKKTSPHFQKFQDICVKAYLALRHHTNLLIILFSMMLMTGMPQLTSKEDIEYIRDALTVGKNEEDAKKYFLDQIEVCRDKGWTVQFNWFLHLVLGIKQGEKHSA
CHEK1: Serine/threonine-protein kinase Chk1 (CHEK1, Homo sapiens, UniProt O14757)
UniProt O14757, sequence (whole entry, looked up): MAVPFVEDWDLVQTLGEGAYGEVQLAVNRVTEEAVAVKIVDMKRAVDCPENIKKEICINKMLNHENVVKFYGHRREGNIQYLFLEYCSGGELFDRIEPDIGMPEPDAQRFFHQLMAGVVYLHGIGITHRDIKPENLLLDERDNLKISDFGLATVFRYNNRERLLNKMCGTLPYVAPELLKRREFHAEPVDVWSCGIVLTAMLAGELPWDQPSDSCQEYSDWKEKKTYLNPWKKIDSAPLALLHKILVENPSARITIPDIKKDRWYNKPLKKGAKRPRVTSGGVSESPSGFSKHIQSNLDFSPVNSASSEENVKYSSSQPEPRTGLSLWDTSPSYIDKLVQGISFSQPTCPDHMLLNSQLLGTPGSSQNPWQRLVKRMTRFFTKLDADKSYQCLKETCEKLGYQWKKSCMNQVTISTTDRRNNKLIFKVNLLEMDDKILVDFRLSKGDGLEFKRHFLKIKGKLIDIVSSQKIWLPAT
PPARA ligand-binding domain: Peroxisome proliferator-activated receptor alpha, ligand-binding domain (PPARA, Homo sapiens, UniProt Q07869)
UniProt Q07869, sequence (whole entry, looked up): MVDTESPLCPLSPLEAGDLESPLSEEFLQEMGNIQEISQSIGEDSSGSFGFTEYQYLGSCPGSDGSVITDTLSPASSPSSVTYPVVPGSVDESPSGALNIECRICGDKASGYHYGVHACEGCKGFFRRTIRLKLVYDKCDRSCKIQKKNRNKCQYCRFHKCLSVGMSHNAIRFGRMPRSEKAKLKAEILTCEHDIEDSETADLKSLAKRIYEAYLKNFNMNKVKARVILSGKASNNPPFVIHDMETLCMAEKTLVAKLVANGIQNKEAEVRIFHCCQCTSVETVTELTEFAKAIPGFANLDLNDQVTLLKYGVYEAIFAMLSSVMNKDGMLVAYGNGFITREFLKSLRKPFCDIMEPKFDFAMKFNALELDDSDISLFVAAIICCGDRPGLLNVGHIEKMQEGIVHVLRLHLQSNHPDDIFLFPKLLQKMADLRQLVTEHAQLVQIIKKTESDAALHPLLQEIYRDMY
Sensor histidine kinase AirS: Sensor histidine kinase AirS (Staphylococcus aureus, UniProt Q2FX96)
UniProt P30874, sequence (whole entry, looked up): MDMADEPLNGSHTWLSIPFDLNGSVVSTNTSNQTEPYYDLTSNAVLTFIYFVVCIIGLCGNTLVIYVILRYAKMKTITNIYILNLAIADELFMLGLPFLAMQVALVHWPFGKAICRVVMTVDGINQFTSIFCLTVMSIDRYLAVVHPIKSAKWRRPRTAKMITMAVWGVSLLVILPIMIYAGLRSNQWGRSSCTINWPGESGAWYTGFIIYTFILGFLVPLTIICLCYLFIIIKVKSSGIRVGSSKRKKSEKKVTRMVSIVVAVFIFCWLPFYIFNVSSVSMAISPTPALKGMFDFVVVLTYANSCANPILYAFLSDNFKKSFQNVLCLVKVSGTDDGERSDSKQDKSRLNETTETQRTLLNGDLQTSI
UniProt Q9C768, sequence (whole entry, looked up): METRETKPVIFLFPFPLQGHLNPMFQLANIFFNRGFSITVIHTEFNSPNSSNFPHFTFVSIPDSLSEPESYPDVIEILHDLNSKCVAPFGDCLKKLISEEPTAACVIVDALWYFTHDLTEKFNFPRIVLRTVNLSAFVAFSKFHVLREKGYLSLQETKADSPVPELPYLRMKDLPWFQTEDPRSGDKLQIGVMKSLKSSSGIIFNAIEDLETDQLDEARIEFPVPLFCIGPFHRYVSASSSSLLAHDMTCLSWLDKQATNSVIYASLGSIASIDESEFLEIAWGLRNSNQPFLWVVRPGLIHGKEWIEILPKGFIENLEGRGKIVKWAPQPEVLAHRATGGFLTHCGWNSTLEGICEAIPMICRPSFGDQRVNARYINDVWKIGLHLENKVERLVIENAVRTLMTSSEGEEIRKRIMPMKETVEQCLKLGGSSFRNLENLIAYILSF
UniProt P18405, sequence (whole entry, looked up): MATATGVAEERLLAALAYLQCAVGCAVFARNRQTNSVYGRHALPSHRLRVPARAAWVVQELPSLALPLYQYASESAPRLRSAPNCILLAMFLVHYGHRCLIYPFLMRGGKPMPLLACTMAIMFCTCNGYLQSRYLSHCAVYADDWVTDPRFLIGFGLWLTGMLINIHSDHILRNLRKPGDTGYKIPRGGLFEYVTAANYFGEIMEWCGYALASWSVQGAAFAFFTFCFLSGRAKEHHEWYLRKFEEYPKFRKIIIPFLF
UniProt P15144, sequence (whole entry, looked up): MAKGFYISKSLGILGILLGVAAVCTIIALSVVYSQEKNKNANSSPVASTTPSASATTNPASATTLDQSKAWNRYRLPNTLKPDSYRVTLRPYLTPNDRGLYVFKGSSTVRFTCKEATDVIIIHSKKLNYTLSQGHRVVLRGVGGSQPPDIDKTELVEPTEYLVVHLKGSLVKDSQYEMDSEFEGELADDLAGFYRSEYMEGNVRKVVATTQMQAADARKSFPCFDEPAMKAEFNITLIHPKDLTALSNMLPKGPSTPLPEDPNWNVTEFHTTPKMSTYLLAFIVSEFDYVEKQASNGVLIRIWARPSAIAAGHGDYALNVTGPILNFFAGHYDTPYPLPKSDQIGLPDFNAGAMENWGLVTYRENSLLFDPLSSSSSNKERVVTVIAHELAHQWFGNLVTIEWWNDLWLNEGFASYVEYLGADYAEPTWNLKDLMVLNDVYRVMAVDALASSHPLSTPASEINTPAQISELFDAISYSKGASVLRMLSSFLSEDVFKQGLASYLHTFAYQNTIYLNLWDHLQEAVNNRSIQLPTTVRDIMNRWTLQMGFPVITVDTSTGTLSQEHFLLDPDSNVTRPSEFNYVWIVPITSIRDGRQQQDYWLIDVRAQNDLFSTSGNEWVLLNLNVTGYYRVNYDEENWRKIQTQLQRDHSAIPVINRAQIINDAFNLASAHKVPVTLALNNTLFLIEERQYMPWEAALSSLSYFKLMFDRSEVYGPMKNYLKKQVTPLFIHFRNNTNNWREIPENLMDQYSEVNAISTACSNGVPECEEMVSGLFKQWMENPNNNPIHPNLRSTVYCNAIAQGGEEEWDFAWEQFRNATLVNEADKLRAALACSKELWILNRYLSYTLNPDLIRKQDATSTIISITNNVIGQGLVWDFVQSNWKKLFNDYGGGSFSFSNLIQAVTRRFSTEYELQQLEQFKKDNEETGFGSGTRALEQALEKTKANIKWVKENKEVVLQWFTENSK

Cc1cnc2nc1Nc1cc(F)cc(c1)COC/C=C/COCc1cc(ccc1OCCN1CCCC1)N2 has an IC50 of 0.00589 µM (JAK2 (Homo sapiens, UniProt O60674); enzyme activity, inhibitor, FRET).
With CN(C)c1ccc(/N=N/c2ccc(NC(=O)CN)cc2)cc1 the IC50 was 0.46 µM (IAPP (Homo sapiens, UniProt P10997); ThT displacement, ThT fluorescence; pH 7.4, preformed target-ThT complex, with: 5 µM ThT).
The IC50 of Cc1nn(-c2cccc(N)c2)c(=O)c2cnc(Nc3ccc(N4CCNCC4)cc3)nc12 is reported as over 10 µM (CSK (Homo sapiens, UniProt P41240); enzyme activity, inhibitor).
The IC50 of Cc1c(COc2cc(OCc3cccc(C#N)c3)c(CN3CCCC[C@@H]3C(=O)O)cc2Cl)cccc1-c1cccc(OCCCCCC(=O)NO)c1 is reported as 0.0415 µM (HDAC2 (Homo sapiens, UniProt Q92769); enzyme activity, inhibitor).
With CCOc1cccc(NC(=O)C(C(F)(F)F)C(F)(F)F)c1 the IC50 was over 100 µM (Chymotrypsinogen A; enzyme activity, inhibitor, fluorescence).
The IC50 of C[C@@H]1Cc2c([nH]c3ccccc23)[C@@H](c2c(F)cc(/C=C/C(=O)O)cc2F)N1C12CC(C1)C2 is reported as 4.29 µM (NR3C1 (Homo sapiens, UniProt P04150); GR receptor activity, antagonist, cell-based).
OC[C@@H]1[C@@H](O)[C@H](O)[C@@H](O)CN1CCCCCOCc1ccc2ccccc2c1 has an IC50 of 0.001 µM (GBA2; inhibitor, 4MU-β-D-glucopyranoside; HEK293T homogenates overexpressing GBA2).
O=C(CCc1ccccc1)N1C(=O)C2(NC(c3ccc(F)cc3)C3(C(=O)Nc4ccccc43)N2Cc2ccc(F)cc2)c2ccccc21 (stereo not drawn) gave an IC50 of 0.0291 µM (PIK3CG; enzyme activity, inhibitor, ADP detection).
With O=C(CCl)NCCC(c1ccccc1)c1ccco1 (stereo not drawn) the IC50 was 137 µM (UGT76B1 (Arabidopsis thaliana, UniProt Q9C768); enzyme activity, inhibitor).
Nc1ncc2c(n1)-c1c([nH]c3ccc(C4=CCOCC4)cc13)CCC2 gave an IC50 of 0.45 µM (PIKFYVE (Homo sapiens, UniProt Q9Y2I7); target engagement in cells, BRET).
With COc1cc(-c2ccc3c(c2)Nc2ccc(C(=O)N4CCCC4CO)cc2NC3=O)ccc1O (stereo not drawn) the IC50 was 0.0378 µM (CHEK1; enzyme activity, inhibitor).
Cc1c(Cc2cccc(OC(C)(C)C(=O)O)c2)c2ccc(C(=O)N[C@@H](C)c3cccc(C(C)(C)C)c3)cc2n1C(C)C gave an IC50 of 6.34 µM (PPARA ligand-binding domain; reporter gene, luciferase reporter; HEK293T, Gal4-PPARα LBD).
With O=C1CC(c2ccccc2)N1S(=O)(=O)c1ccccc1 (stereo not drawn) the IC50 was 1.5 µM (Chymotrypsinogen A; enzyme activity, inhibitor, fluorescence).
With CC(C)C(O)C#Cc1ccc2[nH]c3c(c2c1)-c1nc(N)ncc1CCC3 (stereo not drawn) the IC50 was 0.02 µM (PIP4K2C (Homo sapiens, UniProt Q8TBX8); target engagement in cells, BRET).
The IC50 of CCN1/C(=C/C(C)=O)Sc2ccc(F)cc21 is reported as 27 µM (ADRA2A (Homo sapiens, UniProt P08913); ligand displacement, radioligand).
O=C1Nc2ccccc2/C1=N/c1ccc(Cl)cc1Br has an IC50 of 0.0187 µM (PIK3CG; enzyme activity, inhibitor, ADP detection).
COc1c(Cl)cccc1NC(=O)C(C(F)(F)F)C(F)(F)F has an IC50 of over 100 µM (Chymotrypsinogen A; enzyme activity, inhibitor, fluorescence).
The IC50 of Cc1ccccc1-c1ccc(COCCCCCN2C[C@H](O)[C@@H](O)[C@H](O)[C@H]2CO)cc1 is reported as 0.001 µM (GBA2; inhibitor, 4MU-β-D-glucopyranoside; HEK293T homogenates overexpressing GBA2).
CN(C)c1ncnc2c1ncn2[C@@H]1O[C@H](CCl)[C@@H](NC(=O)[C@H](CSC23CC4CC(CC(C4)C2)C3)NC(=O)OC(C)(C)C)[C@H]1O has an IC50 of over 100 µM (Aminopeptidase N (ANPEP, Homo sapiens, UniProt P15144); enzyme activity, inhibitor, fluorescence).
The IC50 of CCN(CC)CC(=O)Nc1cccc(-n2cc(-c3ccc4ccc(-c5cn(-c6cccc(NC(=O)CN(CC)CC)c6)nn5)cc4c3)nn2)c1 is reported as over 10 µM (MAPK14 (Homo sapiens, UniProt Q16539); enzyme activity, inhibitor).
OC[C@H]1[C@@H](O)[C@H](O)[C@@H](O)CN1CCCCCOCC1CCCC1 has an IC50 of 0.003 µM (GBA2; inhibitor, 4MU-β-D-glucopyranoside; HEK293T homogenates overexpressing GBA2).
For Cc1c(Cc2cccc(OC(C(=O)O)C3CC3)c2)c2ccc(C(=O)NC(C)c3cccc(C(C)(C)C)c3)cc2n1C (mixture of isomers), the IC50 was 1.39 µM (PPARA ligand-binding domain; reporter gene, luciferase reporter; HEK293T, Gal4-PPARα LBD).
The IC50 of O=C(NCCc1ccccc1)C(C(F)(F)F)C(F)(F)F is reported as 9.3 µM (Chymotrypsinogen A; enzyme activity, inhibitor, fluorescence).
For N[C@@H](CCC(=O)N[C@@H](CS[Se]Cc1ccc(-c2cccc(C(O)c3ccc(Cl)c(Cl)c3)c2)cc1)C(=O)NCC(=O)O)C(=O)O (stereo partly drawn), the IC50 was 2.49 µM (PTPN7 (Homo sapiens, UniProt P35236); enzyme activity, inhibitor; with: pNPP, GSH 1 mM).
With N#Cc1cnc(NC(=O)Nc2cc(Cl)ccc2C#N)cn1 the IC50 was over 10 µM (CHEK1; enzyme activity, inhibitor).
For N#Cc1cc(C(=O)c2cc(Br)ccc2O)cn(-c2ccccc2Cl)c1=O, the IC50 was 5.7 µM (Adenylate cyclase type 10 (Homo sapiens, UniProt Q96PN6); enzyme activity, inhibitor, RapidFire mass spectrometry).
With Cc1c(Cc2cc(Cl)cc(O[C@H](C)C(=O)O)c2)c2ccc(C(=O)N[C@@H](C)c3ccc(C(C)(C)C)cc3)cc2n1CC1CCC1 the IC50 was 0.23 µM (PPARA ligand-binding domain; reporter gene, luciferase reporter; HEK293T, Gal4-PPARα LBD).
The IC50 of Cc1nc(N(C)c2ccc3c(c2)/C(=C/c2cn(C)c4ccccc24)C(=O)N3C)c2ccccc2n1 is reported as 0.131 µM (PIK3CG; enzyme activity, inhibitor, ADP detection).
O=C1NC(=O)C(c2ccc(O)cc2)=C1Cl gave an IC50 of 39 µM (Sensor histidine kinase AirS; autophosphorylation, inhibitor, BODIPY-FL-ATPγS in-gel fluorescence; lower bound of confidence interval).
With OC[C@@H]1[C@@H](O)[C@H](O)[C@@H](O)CN1CCCCCOCc1cccc(-c2ccccc2)c1 the IC50 was 0.002 µM (GBA2; inhibitor, 4MU-β-D-glucopyranoside; HEK293T homogenates overexpressing GBA2).
The IC50 of Cc1c(Cc2cccc(OC(C)(C)C(=O)O)c2)c2ccc(C(=O)N[C@@H](C)c3ccc(C4CC4)cc3)cc2n1C is reported as 19 µM (PPARA ligand-binding domain; reporter gene, luciferase reporter; HEK293T, Gal4-PPARα LBD).
The IC50 of OB(O)c1sccc1/C=N/OCc1ccccc1 is reported as over 100 µM (PLAU (Homo sapiens, UniProt P00749); enzyme activity, inhibitor).
C[C@@H](O)[C@H](NC(=O)[C@@H]1CSSC[C@@H](NC(=O)[C@H](Cc2ccccc2)NC(N)=O)C(=O)N[C@@H](Cc2ccc(NC(N)=O)cc2)C(=O)N[C@H](Cc2c[nH]c3ccccc23)C(=O)N[C@@H](CCCCN)C(=O)N[C@@H]([C@@H](C)O)C(=O)N1)C(N)=O gave an IC50 of 0.957 µM and 0.405 µM (SSTR2 (Homo sapiens, UniProt P30874); radioligand binding, inhibitor, competitive radioligand displacement; cloned receptor).
For OC[C@H]1[C@@H](O)[C@H](O)[C@@H](O)CN1CCCCCOCc1ccccc1, the IC50 was 0.003 µM (GBA2; inhibitor, 4MU-β-D-glucopyranoside; HEK293T homogenates overexpressing GBA2).
Cc1c(Cc2cc(Cl)cc(O[C@H](C)C(=O)O)c2)c2ccc(C(=O)N[C@@H](C)c3ccc(C(C)(C)C)cc3)cc2n1CC(C)C gave an IC50 of 10.4 µM (PPARA ligand-binding domain; reporter gene, luciferase reporter; HEK293T, Gal4-PPARα LBD).
O=C(NCC1CCOCC1)c1ccccc1NC(=O)C(C(F)(F)F)C(F)(F)F has an IC50 of 402 µM (Chymotrypsinogen A; enzyme activity, inhibitor, fluorescence).
With COc1ccc([C@H]2N[C@H](C(=O)O)C(C)(C)S2)c(O)c1 the IC50 was 43 µM (B4GALT1 (Homo sapiens, UniProt P15291); enzyme activity, inhibitor).
CC1C(=O)N(S(=O)(=O)c2ccc(C#N)cc2)C1c1ccccc1 (racemic) has an IC50 of 2.5 µM (Chymotrypsinogen A; enzyme activity, inhibitor, fluorescence).
CCCCCCN1C[C@H](O)[C@@H](O)[C@H](O)[C@H]1CO has an IC50 of 0.11 µM (GBA2; inhibitor, 4MU-β-D-glucopyranoside; HEK293T homogenates overexpressing GBA2).
Cc1c(Cc2cc(Cl)cc(OC(C)C(=O)O)c2)c2ccc(C(=O)NC(C)c3ccc(C(C)(C)C)cc3)cc2n1C(C)C (stereo not drawn) gave an IC50 of 1.13 µM (PPARA ligand-binding domain; reporter gene, luciferase reporter; HEK293T, Gal4-PPARα LBD).
O=C1NC(=O)C(N2CCc3cc(Cl)ccc32)=C1c1cccc(Cl)c1 has an IC50 of over 1000 µM (Sensor histidine kinase AirS; autophosphorylation, inhibitor, BODIPY-FL-ATPγS in-gel fluorescence; lower bound of confidence interval).
OC[C@H]1[C@@H](O)[C@H](O)[C@@H](O)CN1CCCCCOCc1ccc(-c2ccccc2)cc1C(F)(F)F has an IC50 of 0.0001 µM (GBA2; inhibitor, 4MU-β-D-glucopyranoside; HEK293T homogenates overexpressing GBA2).
Cc1nc2cc(C(=O)N[C@@H](C)c3ccc(C(C)(C)C)cc3)ccc2n1Cc1cc(Cl)cc(O[C@H](C)C(=O)O)c1 has an IC50 of 0.01 µM (PPARA ligand-binding domain; reporter gene, luciferase reporter; HEK293T, Gal4-PPARα LBD).
OC[C@@H]1[C@@H](O)[C@H](O)[C@@H](O)CN1CCCCCOCc1ccc(-c2ccc3c(c2)OCCCO3)cc1 gave an IC50 of 0.015 µM (GBA2; inhibitor, 4MU-β-D-glucopyranoside; HEK293T homogenates overexpressing GBA2).
With C[C@@H](NC(=O)C(C(F)(F)F)C(F)(F)F)c1ccccc1 the IC50 was over 100 µM (Chymotrypsinogen A; enzyme activity, inhibitor, fluorescence).
Oc1ccc(C=Cc2cc(O)cc(O)c2)cc1 gave an IC50 of 7.18 µM (ALOX5 (Homo sapiens, UniProt P09917); enzyme activity, inhibitor).
O=C(NCc1ccccc1)c1ccccc1NC(=O)C(C(F)(F)F)C(F)(F)F has an IC50 of 15 µM (Chymotrypsinogen A; enzyme activity, inhibitor, fluorescence).
COc1cc(/C=C/C(=O)Oc2cc(C(F)(F)F)ccc2C(F)(F)F)ccc1O gave an IC50 of 8.5 µM (SRD5A1 (Homo sapiens, UniProt P18405); enzyme activity in cells, inhibitor).

A few entries again:
CCCCCCN1C[C@H](O)[C@@H](O)[C@H](O)[C@H]1CO has an IC50 of 0.11 µM (GBA2; inhibitor, 4MU-β-D-glucopyranoside; HEK293T homogenates overexpressing GBA2).
Cc1c(Cc2cc(Cl)cc(OC(C)C(=O)O)c2)c2ccc(C(=O)NC(C)c3ccc(C(C)(C)C)cc3)cc2n1C(C)C (stereo not drawn) gave an IC50 of 1.13 µM (PPARA ligand-binding domain; reporter gene, luciferase reporter; HEK293T, Gal4-PPARα LBD).
O=C1NC(=O)C(N2CCc3cc(Cl)ccc32)=C1c1cccc(Cl)c1 has an IC50 of over 1000 µM (Sensor histidine kinase AirS; autophosphorylation, inhibitor, BODIPY-FL-ATPγS in-gel fluorescence; lower bound of confidence interval).
OC[C@H]1[C@@H](O)[C@H](O)[C@@H](O)CN1CCCCCOCc1ccc(-c2ccccc2)cc1C(F)(F)F has an IC50 of 0.0001 µM (GBA2; inhibitor, 4MU-β-D-glucopyranoside; HEK293T homogenates overexpressing GBA2).
Cc1nc2cc(C(=O)N[C@@H](C)c3ccc(C(C)(C)C)cc3)ccc2n1Cc1cc(Cl)cc(O[C@H](C)C(=O)O)c1 has an IC50 of 0.01 µM (PPARA ligand-binding domain; reporter gene, luciferase reporter; HEK293T, Gal4-PPARα LBD).
OC[C@@H]1[C@@H](O)[C@H](O)[C@@H](O)CN1CCCCCOCc1ccc(-c2ccc3c(c2)OCCCO3)cc1 gave an IC50 of 0.015 µM (GBA2; inhibitor, 4MU-β-D-glucopyranoside; HEK293T homogenates overexpressing GBA2).
With C[C@@H](NC(=O)C(C(F)(F)F)C(F)(F)F)c1ccccc1 the IC50 was over 100 µM (Chymotrypsinogen A; enzyme activity, inhibitor, fluorescence).
